Experimental data gathered from unrelated publications.
Protocols differ between the studies behind these lines.

CN1CC[C@@H](c2c(O)cc(O)c3c(=O)cc(-c4ccc(C(F)(F)F)cc4Cl)oc23)[C@@H]1CO — patients with adverse event (refers to: Epistaxis; relapsed AML; oral, 200 mg, grade 3-4, intermittent dosing): 0%
C[C@@H]1OC(=O)NN=C1c1ccc(-c2ccc(F)cc2)c(C(F)(F)F)c1 — patients with blood ALP increased (patients, phase I trial; oral, 5 mg once daily, worst grade 1): 0%
Nc1nc2cc(-c3ccc4ncc(C(=O)N5CCOCC5)n4c3)ccc2o1 — patients with adverse events (drug-related adverse events, grade ≥3; patients with advanced solid tumours; dose not given): 27%
C=CC(=O)N1CC[C@H](n2nc(C#Cc3cc(OC)cc(OC)c3)c3c(N)ncnc32)C1 — patients with ADR (refers to: blood creatinine increased; hyperphosphataemia patients; oral, once daily, any grade, ferric citrate users): 100%
CCNCCCNC/C=C\CNCCCNCC — patients with drug-related TEAEs (advanced refractory solid tumour patients; intravenous, dose not given, Vascular disorders): 19.6%
COc1c(C)cnc(Cn2cc(C#CCCOP(=O)(O)O)c3c(Cl)nc(N)nc32)c1C — patients with dizziness (patients, advanced solid tumours; dose not given, all doses): 22%
CC(C)C[C@H](NC(=O)[C@@H](Cc1c[nH]c2ccccc12)NC(=O)[C@H](Cc1ccc(O)cc1)NC(=O)[C@H](CO)NC(=O)[C@H](Cc1c[nH]c2ccccc12)NC(=O)[C@H](Cc1c[nH]cn1)NC(=O)[C@@H]1CCC(=O)N1)C(=O)N[C@@H](CCCNC(=N)N)C(=O)N1CCC[C@H]1C(=O)NCC(N)=O — patients who died (Chinese CPP children, overall; intramuscular, 22.5 mg, 12 months, day 1, month 6): 0%
COc1ccc(-c2c(-c3ccc(C#N)c(F)c3)nc(N3CCC(N)CC3)n(C)c2=O)cc1F — patients with TRAE any grade (refers to: decreased appetite; relapsed/refractory MZL patients; oral, 60 mg, dose expansion): 0%
COc1nnc2ccc(N3CCC(c4ccc(OCCN5CCN(C)C(=O)[C@H]5C)cc4)CC3)nn12 — patients with adverse event (refers to: thrombocytopenia; patients with solid tumours or lymphoma; oral, dose not given, all grades, treatment-emergent): 32.4%
CC(=O)c1c(C)c2cnc(Nc3ccc(C4CCN(CCS(C)(=O)=O)CC4)cn3)nc2n(C2CCCC2)c1=O — patients with hypertriglyceridemia (HR+/HER2- advanced breast cancer patients; oral, dose not given, all grades,, sample A patients): 22.2%
O=C1Nc2cc3[nH]nc(-c4ccncc4)c3cc2CN1Cc1ccccc1 — patients with ≥1 TEAE (CTCAE v4.03; advanced solid tumour patients; intravenous, 11.3 mg/kg): 100%
Cn1cc(-c2nc(N[C@@H]3CCCC[C@@H]3N)c(F)c3c2C(=O)NC3)cn1 — patients with gingival bleeding (relapsed/refractory AML patients; oral, 80 mg twice daily, phase Ib trial): 17%
C=CCNc1c(O)cc2c(O)c1C[C@@H](C)C[C@H](OC)[C@H](O)[C@@H](C)/C=C(\C)[C@H](OC(N)=O)[C@@H](OC)/C=C\C=C(/C)C(=O)N2 — patients with AST increase (unresectable or metastatic sarcoma; intravenous, 90 mg/m^2, grade 3-4 lab change): 0%
N[C@@H]1c2ccccc2OC12CCN(c1cnc3c(N4CCCc5ncccc54)n[nH]c3n1)CC2 — patients with any TEAE (advanced solid tumour patients; oral, 75 mg once daily): 100%
[O-][S+]1CCc2nc(N3CCC(c4ncc(Cl)cn4)CC3)nc(NC3(CO)CCC3)c21 (centres unmarked) — patients with respiratory tract infection (adverse event; idiopathic pulmonary fibrosis patients; 18 mg twice daily): 0%
COc1cc2c(Oc3ccc4[nH]c(C)cc4c3F)ccnc2cc1OCC1(N)CC1 — patients with grade 3 ALT elevation (paediatric refractory sarcoma patients; dose not given): 0%
CO[C@H]1C[C@@H]2CC[C@@H](C)[C@@](O)(O2)C(=O)C(=O)N2CCCC[C@H]2C(=O)O[C@H]([C@H](C)C[C@@H]2CC[C@@H](OC(=O)NCCOCCOCCOCCOCCOCCOCCOCCOCCC(=O)N3CCc4cc(Cn5nc(-c6ccc7oc(N)nc7c6)c6c(N)ncnc65)ccc4C3)[C@H](OC)C2)C[C@@H](O)[C@H](C)/C=C(\C)[C@@H](O)[C@@H](OC)C(=O)[C@H](C)C[C@H](C)/C=C/C=C/C=C/1C — patients with AE (refers to: treatment-related decreased appetite; patients with advanced solid tumours; intravenous, dose not given, grade ≥3, all doses): 1.8%

Excerpt of the above:
COc1c(C)cnc(Cn2cc(C#CCCOP(=O)(O)O)c3c(Cl)nc(N)nc32)c1C — patients with dizziness (patients, advanced solid tumours; dose not given, all doses): 22%
CC(C)C[C@H](NC(=O)[C@@H](Cc1c[nH]c2ccccc12)NC(=O)[C@H](Cc1ccc(O)cc1)NC(=O)[C@H](CO)NC(=O)[C@H](Cc1c[nH]c2ccccc12)NC(=O)[C@H](Cc1c[nH]cn1)NC(=O)[C@@H]1CCC(=O)N1)C(=O)N[C@@H](CCCNC(=N)N)C(=O)N1CCC[C@H]1C(=O)NCC(N)=O — patients who died (Chinese CPP children, overall; intramuscular, 22.5 mg, 12 months, day 1, month 6): 0%
